Assay results pooled from the literature.
Compare with care: the assays were run in different laboratories. ± gives the spread as reported.
Technique: steady-state kinetics
B1: thyA H147V (Escherichia coli, UniProt P0A884); chain MKQYLELMQKVLDEGTQKNDRTGTGTLSIFGHQMRFNLQDGFPLVTTKRCHLRSIIHELLWFLQGDTNIAYLHENNVTIWDEWADENGDLGPVYGKQWRAWPTPDGRHIDQITTVLNQLKNDPDSRRIIVSAWNVGELDKMALAPCVAFFQFYVADGKLSCQLYQRSCDVFLGLPFNIASYALLVHMMAQQCDLEVGDFVWTGGDTHLYSNHMDQTHLQLSREPRPLPKLIIKRKPESIFDYRFEDFEIEGYDPHPGIKAPVAI
B2: enzyme A178R/D177A/G159A/M179S/P184R (Levilactobacillus brevis, UniProt Q03Q85); chain MKVTVVGCTHAGTFAIKQILAEHPDAEVTVYERNDVISFLSCGIALYLGGKVADPQGLFYSSPEELQKLGANVQMNHNVLAIDPDQKTVTVEDLTNHAQTTESYDKLVMTSGSWPIVPKIPGIDSDRVKLCKNWAHAQALIEDAKEAKRITVIGAGYIAAELAEAYSTTGHDVTLIARSARVMRKYFDADFTDVIEQDYRDHGVQLALGETVESFTDSATGLTIKTDKNSYETDLAILCIGFRPNTDLLKGKVDMAPNGAIITDDYMRSSNPDIFAAGDSAAVHYNPTHQNAYIPLATNAVRQGILVGKNLVKPTVKYMGTQSSSGLALYDRTIVSTGLTLAAAKQQGLNAEQVIVEDNYRPEFMPSTEPVLMSLVFDPDTHRILGGALMSKYDVSQSANTLSVCIQNENTIDDLAMVDMLFQPNFDRPFNYLNILAQAAQAKVAQSVNA
B3: alanine racemase H166F (Geobacillus stearothermophilus, UniProt P10724); chain MNDFHRDTWAEVDLDAIYDNVENLRRLLPDDTHIMAVVKANAYGHGDVQVARTALEAGASRLAVAFLDEALALREKGIEAPILVLGASRPADAALAAQQRIALTVFRSDWLEEASALYSGPFPIHFHLKMDTGMGRLGVKDEEETKRIVALIERHPHFVLEGLYTFFATADEVNTDYFSYQYTRFLHMLEWLPSRPPLVHCANSAASLRFPDRTFNMVRFGIAMYGLAPSPGIKPLLPYPLKEAFSLHSRLVHVKKLQPGEKVSYGATYTAQTEEWIGTIPIGYADGWLRRLQHFHVLVDGQKAPIVGRICMDQCMIRLPGPLPVGTKVTLIGRQGDEVISIDDVARHLETINYEVPCTISYRVPRIFFRHKRIMEVRNAIGRGESSA
B4: Nudt8 (Mus musculus, UniProt Q9CR24); chain MLPDGLSAEDEQRCRQLLARTTARLRSRPAAAAVLVPLCLVRGVPALLYTLRSSRLVGRHKGEVSFPGGKCDPDDQDVIHTALRETQEELGLEVPKEHVWGVLQPVYDREKATIVPVLANVGPLDLQSLRPNLEEVDEVFEMSLAHLLQTQNQGYTHFCQGGHFSYTLPVFLHGPHRVWGLTAVITELTLKLLAPGFYQPSLAVPELPRG
B5: protein (Streptomyces sp. NRRL 30471, UniProt F2WUC8); chain MVRADYRTPEVNDVVRYRYGAAETALLKNRISEFGFTMAEVPGECAPQTEIERLGKALGLGEPYVAALYQRGDTRAHGALYTDVRSRAHNTHPGFGTTEGQTIHVDGLLEPIGTIRTTILFCVRPAVSGGRTVLFNSSAAFETLRHSDPAAAESLRDPGVLRRRSTLPNVDAGHTGPAFAYDNGLLITRYSEGPTVEWNAPPGRSAELERALNFLRAAAEDKRYSIALRLGAGEALIFRNDVISHGREAYRDDPAAPRHLIRTLYLESP
B6: MTRR A129T (Homo sapiens, UniProt Q9UBK8); chain MRRFLLLYATQQGQAKAIAEEICEQAVVHGFSADLHCISESDKYDLKTETAPLVVVVSTTGTGDPPDTARKFVKEIQNQTLPVDFFAHLRYGLLGLGDSEYTYFCNGGKIIDKRLQELGARHFYDTGHTDDCVGLELVVEPWIAGLWPALRKHFRSSRGQEEISGALPVASPASSRTDLVKSELLHIESQVELLRFDDSGRKDSEVLKQNAVNSNQSNVVIEDFESSLTRSVPPLSQASLNIPGLPPEYLQVHLQESLGQEESQVSVTSADPVFQVPISKAVQLTTNDAIKTTLLVELDISNTDFSYQPGDAFSVICPNSDSEVQSLLQRLQLEDKREHCVLLKIKADTKKKGATLPQHIPAGCSLQFIFTWCLEIRAIPKKAFLRALVDYTSDSAEKRRLQELCSKQGAADYSRFVRDACACLLDLLLAFPSCQPPLSLLLEHLPKLQPRPYSCASSSLFHPGKLHFVFNIVEFLSTATTEVLRKGVCTGWLALLVASVLQPNIHASHEDSGKALAPKISISPRTTNSFHLPDDPSIPIIMVGPGTGIAPFIGFLQHREKLQEQHPDGNFGAMWLFFGCRHKDRDYLFRKELRHFLKHGILTHLKVSFSRDAPVGEEEAPAKYVQDNIQLHGQQVARILLQENGHIYVCGDAKNMAKDVHDALVQIISKEVGVEKLEAMKTLATLKEEKRYLQDIWS
B7: sacB S173A/S422A (Priestia megaterium, UniProt D5DC07); chain KGNDSKDFNNSYGISHITRDNMVKIPQQQNSDQFKVPAFDESTIKNIASAKGKNASGNTIDLDVWDSWPLQNADGTVATYHGYQIVFALAGDPKDSNDTSVYLFYKKAGDKSIDSWKNAGRVFKDSDKFVPNDPHLKNQTQEWAGSGTLTKDGKVRLFYTDYSGKQYGKQTLTTAQVNMSQPNDNTLKVDGVEDYKSIFDGDGKIYQTVQQFIDEGGYDTGDNHTLRDPHYIEDNGHKYLVFEANTGTEDGYQGEDSLYNRAYYGGNNPFFQSEKKKLLEGSNKEKASLANGALGIIELNDDYTLKKVMKPLITSNTVTDEIERANIFKKDGKWYLFTDSRGSKMTIDGIGQDDVYMLGYVSNTLTGKYKPLNDTGLVLHMDLDPNDKTFTYAHFAVPQTKGDNVVITSYMTNRGFYEDNHSTFAPSFLVNIDGSKTSVVKDRVLEQGQLTVDED
B8: enzyme (Halalkalibacterium halodurans, UniProt Q9KCN8); chain MLNVTQLQEATTFIQQQIETKPTIGLILGSGLGILADEIEQPVKVPYSDIPHFPVSTVQGHAGQLVIGMLEGKQVIAMQGRFHFYEGYSLEVVTFPVRVMKALGVEQIIVTNAAGGVNESFEAGDLMIIRDHINNMAQNPLIGPNDEAFGVRFPDMSNAYSERLRTLAKEKGNTLNLKLQEGVYVANTGPVYETPAEVRMIRKLGGDAVGMSTVPEVIVARHAGLEVLGISCISNMAAGILPQPLSHDEVIETTERVRQDFLNLVKAIVKDM
Sequence of UniProt P15424 (whole entry, looked up): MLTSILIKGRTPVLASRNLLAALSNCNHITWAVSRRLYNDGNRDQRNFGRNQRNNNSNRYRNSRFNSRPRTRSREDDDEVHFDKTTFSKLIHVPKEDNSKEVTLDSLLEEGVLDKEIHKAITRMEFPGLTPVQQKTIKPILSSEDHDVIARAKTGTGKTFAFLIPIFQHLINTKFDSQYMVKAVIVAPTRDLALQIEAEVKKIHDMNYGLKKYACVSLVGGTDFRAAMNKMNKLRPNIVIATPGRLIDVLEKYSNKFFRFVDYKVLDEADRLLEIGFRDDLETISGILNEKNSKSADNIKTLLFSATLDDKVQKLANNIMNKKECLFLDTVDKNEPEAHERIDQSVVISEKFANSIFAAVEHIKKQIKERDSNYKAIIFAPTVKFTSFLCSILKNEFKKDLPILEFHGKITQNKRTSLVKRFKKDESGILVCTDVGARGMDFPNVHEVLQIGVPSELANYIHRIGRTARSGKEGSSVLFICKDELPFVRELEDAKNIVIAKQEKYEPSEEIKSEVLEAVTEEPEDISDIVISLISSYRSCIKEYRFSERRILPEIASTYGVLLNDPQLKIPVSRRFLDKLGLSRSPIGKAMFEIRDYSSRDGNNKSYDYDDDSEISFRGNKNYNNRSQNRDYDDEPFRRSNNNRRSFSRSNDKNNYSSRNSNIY
Sequence of UniProt Q9LUE2 (whole entry, looked up): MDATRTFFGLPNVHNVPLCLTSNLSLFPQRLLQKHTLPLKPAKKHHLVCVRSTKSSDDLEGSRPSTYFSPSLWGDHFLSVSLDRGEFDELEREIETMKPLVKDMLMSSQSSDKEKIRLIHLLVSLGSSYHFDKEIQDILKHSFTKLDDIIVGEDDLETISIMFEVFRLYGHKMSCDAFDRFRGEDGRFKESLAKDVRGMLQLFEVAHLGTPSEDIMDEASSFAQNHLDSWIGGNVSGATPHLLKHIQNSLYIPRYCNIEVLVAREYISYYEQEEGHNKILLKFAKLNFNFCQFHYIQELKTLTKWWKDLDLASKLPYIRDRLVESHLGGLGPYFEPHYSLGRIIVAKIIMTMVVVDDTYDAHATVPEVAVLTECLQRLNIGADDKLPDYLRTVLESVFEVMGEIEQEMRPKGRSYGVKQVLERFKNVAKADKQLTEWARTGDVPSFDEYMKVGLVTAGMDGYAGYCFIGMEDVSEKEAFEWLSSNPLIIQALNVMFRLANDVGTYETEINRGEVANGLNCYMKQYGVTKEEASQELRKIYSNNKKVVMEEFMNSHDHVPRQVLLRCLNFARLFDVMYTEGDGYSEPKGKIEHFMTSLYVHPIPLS

`B1 (thyA H147V)` has a kcat of 0.61 ± 0.04 s⁻¹ (Nc1nc2c(c(=O)[nH]1)N1CN(c3ccc(C(=O)N[C@@H](CCC(=O)O)C(=O)O)cc3)C[C@H]1CN2; 25 °C, substrate inhibition by CH2H4folate, cofactor varied, with: dUMP 200 µM).
With `AtTPS18 (Arabidopsis thaliana, UniProt Q9LUE2)` the kcat was 0.11 ± 0.017 s⁻¹ (CC(C)=CCC/C(C)=C/CC/C(C)=C/CC/C(C)=C/CC/C(C)=C/COP(=O)(O)OP(=O)(O)O; pH 7.5, 30 °C, product C7 measured, with: Mg2+ 10 mM).
For `protein (Actinidia deliciosa, UniProt C7SHN9)`, the kcat was 0.44 ± 0.046 s⁻¹ (CC(C)=CCC/C(C)=C/CC/C(C)=C/CO[P@@](=O)(O)OP(=O)(O)O; pH 7.5, with: FPP 1-100 µM).
For `B2`, the kcat was 2.9 ± 0.4 s⁻¹ (NC(=O)C1=CN([C@@H]2O[C@H](COP(=O)(O)OP(=O)(O)OC[C@H]3O[C@@H](n4cnc5c(N)ncnc54)[C@H](O)[C@@H]3O)[C@@H](O)[C@H]2O)C=CC1; pH 7.5, 37 °C, per site).
For `protein (UniProt M4ZR24)`, the kcat was 0.267 ± 0.0333 s⁻¹ (NC[C@H]1O[C@@H](n2ccc(=O)[nH]c2=O)C[C@@H]1O; phosphorolysis, single substrate, with: phosphate).
`MSS116 (Saccharomyces cerevisiae, UniProt P15424)` gave a kcat of 0.075 ± 0.0183 s⁻¹ (Nc1ncnc2c1ncn2[C@@H]1O[C@H](COP(=O)(O)OP(=O)(O)OP(=O)(O)O)[C@@H](O)[C@H]1O; pH 7.5, 37 °C, with: ATP).
The kcat of `B3 (alanine racemase H166F)` is reported as 3.9 s⁻¹ (C[C@@H](N)C(=O)O; pH 9, room temperature, with: NAD+ 10 mM).
`B4 (Nudt8)` gave a kcat of 2.48 ± 0.183 s⁻¹ (CCCCCC(=O)SCCNC(=O)CCNC(=O)[C@H](O)C(C)(C)COP(=O)(O)OP(=O)(O)OC[C@H]1O[C@@H](n2cnc3c(N)ncnc32)[C@H](O)[C@@H]1OP(=O)(O)O; pH 8.5, with: 2 mM Mn2+).
For `B5 (protein)`, the kcat was 4.4 ± 0.3 s⁻¹ (O=c1ccn([C@@H]2O[C@H](COP(=O)(O)O)[C@@H](O)[C@H]2O)c(=O)[nH]1; pH 7.5, 30 °C, with: αKG 2 mM, ascorbic acid 2 mM, FeCl2 0.4 mM).
`alanine aminopeptidase (Neisseria meningitidis, UniProt Q9JYV4)` has a kcat of 5.6 ± 0.28 s⁻¹ (NC(=O)Cc1cc(=O)oc2cc(NC(=O)[C@@H](N)CCC(=O)OCc3ccccc3)ccc12; pH 7.5, 37 °C).
The kcat of `B6 (MTRR A129T)` is reported as 0.71 ± 0.051 s⁻¹ (COc1cccc2c1C(=O)c1c(O)c3c(c(O)c1C2=O)C[C@@](O)(C(=O)CO)C[C@@H]3O[C@H]1C[C@H](N)[C@H](O)[C@H](C)O1; pH 7.5, 37 °C, substoichiometric FMN, with: NADPH).
For `B7 (sacB S173A/S422A)`, the kcat was 2.8 ± 0.1 s⁻¹ (OC[C@H]1O[C@@](CO)(O[C@H]2O[C@H](CO)[C@@H](O)[C@H](O)[C@H]2O)[C@@H](O)[C@@H]1O; pH 6.6).
For `B8 (enzyme)`, the kcat was 12 s⁻¹ (Nc1nc2c(ncn2[C@@H]2O[C@H](CO)[C@@H](O)[C@H]2O)c(=O)[nH]1; pH 8).

Excerpt of the above:
The kcat of `B3 (alanine racemase H166F)` is reported as 3.9 s⁻¹ (C[C@@H](N)C(=O)O; pH 9, room temperature, with: NAD+ 10 mM).
`B4 (Nudt8)` gave a kcat of 2.48 ± 0.183 s⁻¹ (CCCCCC(=O)SCCNC(=O)CCNC(=O)[C@H](O)C(C)(C)COP(=O)(O)OP(=O)(O)OC[C@H]1O[C@@H](n2cnc3c(N)ncnc32)[C@H](O)[C@@H]1OP(=O)(O)O; pH 8.5, with: 2 mM Mn2+).
